# Experimental data of several laboratories.
# Each numbered part is a random draw from the data of one study; scales do not carry over between parts. Changes are numbered by the printed parent chain.

# Block 1
# Target: RNA binding protein fox-1 homolog 2, RRM domain, GST-SBP tag (RBFOX2, Homo sapiens, UniProt O43251-10, residues 100-194)
# Method: RNA Bind-n-Seq
# Form: RNA
# Medium: in vitro
# Concentration: 365 nM
# Setting: natural RNA segment, single round, ends assumed
# Baseline: no-protein control
# Direction: higher = stronger binding
# Constant ends, left off below: GGGAGUUCUACAGUCCGACGAUC … UGGAAUUCUCGGGUGCCAA
# Target sequence (chain): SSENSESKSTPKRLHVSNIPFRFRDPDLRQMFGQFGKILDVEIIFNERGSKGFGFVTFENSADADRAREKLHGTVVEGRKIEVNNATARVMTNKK
Oligonucleotide,RBNS enrichment (R)
CUCCAGAGGGCUUCCUGCCACAGAAGUGCUGCCAAGCAGAAGAACCUGUGCCAACUGUGGAGUGGGGAGGCAGGGCCUGAACCCUCAAUCCCUGCAGCCUAGCCUCCCCA,0.351
UUGUAAACCCACAGUUGUAAGCUUAGUGACUUCACAUGUAUGUAGCAUUGGUACUGGUCUGAGCCACCUGCUACCCAGUAGAUAGAUAACCUUUUUGUUAGUGUUUAAGG,1.16
UACCUCUUUCCUUGACUCUCUUCUUAUUUGUAAUACUCUGAGUUCUGCAUCUGUCUCAGACAGGAGCUACCAAAGGGAAACUGUUGUUCUUAUAAGUGUCUUACUUUAAA,0.241
AAGCAAAGGAUUCCAGGCUCCAGAAAAAAUGAAUGAACUCACCUUGACGUCAAUGCAAUUGAAUCACCGUUGUCAUUCAGCGAGCAACCAAUGUAGGAUUGCCCACAGUU,0.215
GUCAUACCGUGACAGCCCGCAGGAUCAGGUGACUUCUAGCAGAGACCCUGGUUUUUUUCCUGUGCCCACUCCGGCUUGUCCUCAUCUCUACCCAUCCCCUGAUGCCCAGG,0.382
GACCUGAUCUGAAGUGCACCAAGGAAGUAUCUGGUGGUUCUCCUGAGAUGGGGGCCUUGCAGCCCAGCACCCCCUCACUGCCAGCAGGGCACCAGGAGACAGGGUCCAGG,0.427
GACUUAAAAAAUCAAAUCCCCCGACAUACGUUUUUUUUAAUCUGUGCCAAAAAUGUGUUUUCAGAGGAAAUCUUAUUUUCAUAUUCAGACUUUGUAUUGCCCACUCAUUU,0.624
CCAUGGAGGUUAUUGCCUGCGUCCCAGAAUCAAGCAGUUGGGGUGCAGGAGGCUGACAUAGUGAUAUUGAGUAGUGAUUAGGAAAGGGGCGGUGUUGAACUGUUUGUGUA,1.37

# Block 2
# Target: CRIPT, C-terminal peptide
# Method: DHFR complementation, deep sequencing
# Medium: yeast
# Setting: single substitutions, model-inferred values
# Baseline: wild type
# Direction: higher = weaker binding
# Starting sequence: ERBIN, PDZ domain 1 (human); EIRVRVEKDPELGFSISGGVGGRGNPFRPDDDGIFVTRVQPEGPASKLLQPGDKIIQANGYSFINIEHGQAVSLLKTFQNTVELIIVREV; partner TKNYKQTSV
Variant,binding free energy change [kcal/mol]
H68E,1.16
S17F,1.4
V82P,0.962
P41I,0.357
A71F,0.915
Q50S,0.0666
K8H,0.78
E1M,0.203

# Mixed results
# P1: viral docking peptide; TSVRRALFTGGSD; partner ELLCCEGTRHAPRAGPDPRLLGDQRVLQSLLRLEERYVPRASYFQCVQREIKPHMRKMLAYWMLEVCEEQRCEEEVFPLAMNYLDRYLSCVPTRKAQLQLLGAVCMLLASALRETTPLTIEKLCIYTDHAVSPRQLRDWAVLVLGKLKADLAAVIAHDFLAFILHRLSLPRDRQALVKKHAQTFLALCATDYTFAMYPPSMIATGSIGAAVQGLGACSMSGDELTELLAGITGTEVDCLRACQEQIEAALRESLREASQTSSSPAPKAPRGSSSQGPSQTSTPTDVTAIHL
# P2: PafA, mature enzyme, eGFP fusion (Elizabethkingia meningoseptica, UniProt Q9KJX5); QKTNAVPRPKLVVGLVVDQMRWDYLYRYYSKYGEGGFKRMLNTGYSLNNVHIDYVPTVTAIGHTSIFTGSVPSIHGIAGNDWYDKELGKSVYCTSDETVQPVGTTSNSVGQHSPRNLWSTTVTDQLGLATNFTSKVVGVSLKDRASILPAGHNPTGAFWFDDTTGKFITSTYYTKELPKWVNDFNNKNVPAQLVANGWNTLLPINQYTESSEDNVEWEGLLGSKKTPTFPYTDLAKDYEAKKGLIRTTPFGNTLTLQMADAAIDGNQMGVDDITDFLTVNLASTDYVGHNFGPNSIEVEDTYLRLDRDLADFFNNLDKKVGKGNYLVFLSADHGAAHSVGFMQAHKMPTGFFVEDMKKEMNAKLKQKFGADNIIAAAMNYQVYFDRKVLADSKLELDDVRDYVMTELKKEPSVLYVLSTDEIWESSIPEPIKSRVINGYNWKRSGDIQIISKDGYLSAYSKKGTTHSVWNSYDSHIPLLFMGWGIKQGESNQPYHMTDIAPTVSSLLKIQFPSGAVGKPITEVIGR
Variant,target,assay,system,conditions,how to read,quantity,result
P1 G11R,"CCND3, cyclin fold, Cln2 fusion (human)","yeast growth competition, sequencing",yeast,weak parent motif,"baseline: not given, higher = stronger binding",normalised enrichment score,-0.00431
P2 K408G,"tungstate, free oxyanion",microfluidic competitive inhibition,"in vitro, cell-free expressed","not given, derived from inhibition constants, unchanged parent 2230 nM",lower = stronger binding,oxyanion analog dissociation constant,2.15 µM

# For quick reference, copied from above (block 2):
Variant,binding free energy change [kcal/mol]
K8H,0.78
E1M,0.203
